{"data": "Assay results collected from several papers", "Fibroin-modulator-binding protein-1": "Fibroin-modulator-binding protein-1 99-193 (Bombyx mori, UniProt Q5FBS0)", "HLA class I histocompatibility antigen, A alpha chain allele A*24:02": "HLA class I histocompatibility antigen, A alpha chain, allele A*24:02 (Homo sapiens, UniProt P04439)", "note": "± marks the error that the study gave."}
{"Substance": "GAACGAACGAAC (dsDNA)", "target or system": "Fibroin-modulator-binding protein-1", "assay": "ITC", "system": "double-stranded DNA, one strand shown", "measurement": "Kd", "result": "6.31 µM"}
{"Substance": "CCT4", "assay": "co-immunoprecipitation", "system": "human RBC membrane", "setting": "DMTMM crosslinker, unit not given, together with: Band 3 peptide 1-56 bait", "how to read": "reference: negative control", "measurement": "co-IP enrichment", "result": 3.28}
{"Substance": "epoetin alfa", "target or system": "UT7/EPO", "assay": "RT-qPCR, measured: MAFF", "setting": "concentration not given, 90 min", "how to read": "reference: vehicle", "measurement": "mRNA fold induction", "result": "2.5 fold"}
{"Substance": "GLGQWISGA", "target or system": "Jurkat T cells expressing 1G4 TCR", "assay": "NFAT-eGFP reporter, flow cytometry", "system": "peptide", "setting": "concentration not given, HLA-A*02:01 NY-ESO system", "measurement": "reporter activation", "result": "0.26%"}
{"Substance": "GSGAGKETYY", "target or system": "human MAGI1-3/6 PDZ construct (MBP fusion)", "assay": "automated holdup", "system": "peptide, crude extract", "setting": "concentration not given, uncorrected, unit not given", "how to read": "reference: biotin control resin, higher = stronger binding", "measurement": "binding intensity", "result": -0.0493}
{"Substance": "human alpha-enolase", "assay": "co-immunoprecipitation", "system": "human RBC cytosol", "setting": "unit not given, together with: Band 3 peptide 1-56 bait", "how to read": "reference: negative control", "measurement": "co-IP enrichment", "result": 1.6}
{"Substance": "GLAQWIAGV", "target or system": "Jurkat T cells expressing 1G4 TCR", "assay": "NFAT-eGFP reporter, flow cytometry", "system": "peptide", "setting": "concentration not given, HLA-A*02:01 NY-ESO system", "measurement": "reporter activation", "result": "0.17%"}
{"Substance": "GSGAGKETEC", "target or system": "human MAGI1-2/6 PDZ construct (MBP fusion)", "assay": "automated holdup", "system": "peptide, crude extract", "setting": "concentration not given, uncorrected, unit not given", "how to read": "reference: biotin control resin, higher = stronger binding", "measurement": "binding intensity", "result": 0.214}
{"Substance": "GLFQWISGA", "target or system": "Jurkat T cells expressing 1G4 TCR", "assay": "NFAT-eGFP reporter, fluorescence microscopy", "system": "peptide", "setting": "concentration not given, HLA-A*02:01 NY-ESO system", "measurement": "reporter activation", "result": "0.00194%"}
{"Substance": "GSGAGSETVV", "target or system": "human SCRIB PDZ3-4 tandem (MBP fusion)", "assay": "automated holdup", "system": "peptide, crude extract", "setting": "concentration not given, uncorrected, unit not given", "how to read": "reference: biotin control resin, higher = stronger binding", "measurement": "binding intensity", "result": 0.386}
{"Substance": "human GAPDH", "assay": "co-immunoprecipitation", "system": "human RBC membrane", "setting": "unit not given, together with: Band 3 peptide 1-56 bait", "how to read": "reference: negative control", "measurement": "co-IP enrichment", "result": 10.8}
{"Substance": "colistin", "target or system": "Stenotrophomonas maltophilia", "assay": "broth microdilution", "system": "clinical isolate RKI-No 729/15", "measurement": "MIC", "result": "> 64 µg/mL"}
{"Substance": "SVWLRKETRV", "target or system": "human MAGI1-2/6 PDZ construct (MBP fusion)", "assay": "surface plasmon resonance", "system": "peptide", "setting": "concentration not given", "how to read": "higher = stronger binding", "measurement": "normalised SPR binding response", "result": "229 normalised RU"}
{"Substance": "LMPFGSLL", "target or system": "HLA class I histocompatibility antigen, A alpha chain allele A*24:02", "assay": "conformational ELISA", "system": "peptide", "setting": "concentration not given", "how to read": "reference: positive control peptide, direction not given", "measurement": "binding score", "result": "26.4%"}
{"Substance": "ACEQNPIYWARYADWLFTTPLLLLDLALLVDADEGT", "assay": "ex vivo fluorescence imaging", "system": "peptide, BALB/c mice, 4T1 tumour-bearing", "setting": "intravenous, 5 nmol, 2 h post-injection, background-corrected mean fluorescence", "how to read": "reference: tumour over muscle", "measurement": "contrast index", "result": "4.1 ± 0.9"}
{"Substance": "GCTAGCTAGCTA (dsDNA)", "target or system": "Fibroin-modulator-binding protein-1", "assay": "ITC", "system": "double-stranded DNA, one strand shown", "measurement": "Kd", "result": "5.46 ± 0.561 µM"}
{"Substance": "Teicoplanin", "system": "human serum", "setting": "three freeze-thaw cycles", "measurement": "freeze-thaw stability", "result": "stable"}
{"Substance": "TSTVQLIMQL", "target or system": "HLA class I histocompatibility antigen, A alpha chain allele A*24:02", "assay": "conformational ELISA", "system": "peptide", "setting": "concentration not given", "how to read": "reference: positive control peptide, direction not given", "measurement": "binding score", "result": "2%"}
{"Substance": "ALFQWVSQA", "target or system": "Jurkat T cells expressing 1G4 TCR", "assay": "NFAT-eGFP reporter, flow cytometry", "system": "peptide", "setting": "concentration not given, HLA-A*02:01 NY-ESO system", "measurement": "reporter activation", "result": "6.51%"}
{"Substance": "Peginesatide", "target or system": "UT7/EPO", "assay": "tyrosine phosphorylation, LC-MS/MS phosphoproteomics, trypsin, measured: VAV1 tyrosine 844", "setting": "10 nM, 15 min, together with: 10 U/mL EPO", "how to read": "reference: vehicle", "measurement": "phosphorylation level", "result": "7.6 fold"}
{"Substance": "CCT3", "assay": "co-immunoprecipitation", "system": "human RBC cytosol", "setting": "DSSO crosslinker, unit not given, together with: Band 3 peptide 1-56 bait", "how to read": "reference: negative control", "measurement": "co-IP enrichment", "result": 4380}
{"Substance": "GGWVEKETYY", "target or system": "human MAGI1-3/6 PDZ construct (MBP fusion)", "assay": "automated holdup", "system": "peptide, crude extract", "setting": "concentration not given, corrected by standard peak, unit not given", "how to read": "reference: biotin control resin, higher = stronger binding", "measurement": "binding intensity", "result": -0.0842}
{"Substance": "GLFQWIAQA", "target or system": "Jurkat T cells expressing 1G4 TCR", "assay": "NFAT-eGFP reporter, flow cytometry", "system": "peptide", "setting": "concentration not given, HLA-A*02:01 NY-ESO system", "measurement": "reporter activation", "result": "0.16%"}
{"Substance": "GSGAGRETEV", "target or system": "human MAGI1-3/6 PDZ construct (MBP fusion)", "assay": "automated holdup", "system": "peptide, crude extract", "setting": "concentration not given, uncorrected, unit not given", "how to read": "reference: biotin control resin, higher = stronger binding", "measurement": "binding intensity", "result": 0.149}
{"Substance": "DLLQWQTKL", "target or system": "Jurkat T cells expressing 1G4 TCR", "assay": "NFAT-eGFP reporter, flow cytometry", "system": "peptide", "setting": "concentration not given, HLA-A*02:01 NY-ESO system", "measurement": "reporter activation", "result": "0.17%"}
{"note": "Excerpt of the above:"}
{"Substance": "GGWVEKETYY", "target or system": "human MAGI1-3/6 PDZ construct (MBP fusion)", "assay": "automated holdup", "system": "peptide, crude extract", "setting": "concentration not given, corrected by standard peak, unit not given", "how to read": "reference: biotin control resin, higher = stronger binding", "measurement": "binding intensity", "result": -0.0842}
{"Substance": "SVWLRKETRV", "target or system": "human MAGI1-2/6 PDZ construct (MBP fusion)", "assay": "surface plasmon resonance", "system": "peptide", "setting": "concentration not given", "how to read": "higher = stronger binding", "measurement": "normalised SPR binding response", "result": "229 normalised RU"}
